Measured values from different studies.
Lines come from different studies, so protocols differ. ± marks the error that the study gave.

COc1cc(-c2nc3ccccc3s2)cc(CN2Cc3cccc(n3)CN(CC(=O)O)Cc3cccc(n3)C2)c1O  pKa4 (UV-vis spectrophotometric titration, measured: HL/L- equilibrium; MeOH/water with NaCl; 50 µM, room temperature, NaCl 0.1 M, MeOH ≤20% v/v): 9.98
[11CH3]c1ccc2nc(C3CCC3)n(-c3ccc4[nH]ncc4c3)c2n1  absorbed dose (extrapolated from mouse biodistribution; standard human, testes or uterus): 2.4 µSv/MBq
COc1ccc(-c2cc(=O)c3c(O)cc(O[C@@H]4O[C@H](CO[C@@H]5O[C@@H](C)[C@H](O)[C@@H](O)[C@H]5O)[C@@H](O)[C@H](O)[C@H]4O)cc3o2)cc1  measured concentration (freeze-thaw stability; rat plasma; 3 days, high QC, 3 freeze-thaw cycles): 2962 ± 18.5 ng/mL
C[C@H](CN(C)Cc1ccccc1)NC(=O)c1ccc(-c2noc(C(F)(F)[18F])n2)cc1  brain uptake (microPET; mouse; 60 min after injection): 2.86 ± 0.19 %ID/cc
NC12CNCCNCC(NCc3ccc(CNC(=O)CCCC(=O)NCc4ccc(-c5nncnn5)cc4)cc3)(CNCCNC1)CNCCNC2.[64Cu+2]  mean absorbed dose (OLINDA dosimetry; pancreas; 48 h pretargeting interval, with: huA33-TCO pretargeting): 0.0362 rad/mCi
Cc1ccc(OCC(=O)O)cc1  t1/2 (beagle dog, male, plasma; oral gavage, 100 mg/kg of parent drug): 6.07 h
CONC(=O)/C=C/c1cccc(S(=O)(=O)Nc2ccccc2)c1  fold change in AUC metabolite ratio (human patients, liver dysfunction; intravenous, 400 mg/m^2 of belinostat, with worsening liver function; baseline: compound over parent drug): ~2 fold
CCCC[C@H](NC(C)=O)C(=O)N[C@H]1CC(=O)NCCCC[C@@H](C(=O)N[C@@H](C(=O)N2CCC[C@@H]2C(N)=O)C(C)C)NC(=O)[C@H](Cc2c[nH]c3ccccc23)NC(=O)[C@H](CCCN=C(N)N)NC(=O)[C@@H](Cc2ccc3ccccc3c2)NC(=O)[C@@H]2CCCN2C1=O  Cmax (Beagle dog, both sexes, plasma; subcutaneous, once daily, 2.25 mg/kg, day 28): 3600 ± 300 ng/mL
CC(C)(C)CC(C)(C)Nc1c(-c2ccc3c(c2)OCO3)nc2cnccn12  MDA level (Wistar rat, liver; 1000 mg/kg; baseline: control): increased
O=C(O)[C@@H]1C[C@@H](O)CN1C(=O)[C@@H]1CCCN1  pKa3 (potentiometric titration; water; 25 °C, 0.15 mol/dm3 NaCl): > 12
O=C([O-])CN1CCN(CC(=O)[O-])CCN(CC(=O)NCC2CCC(C(=O)NC(Cc3ccc4ccccc4c3)C(=O)NCCCCC(NC(=O)NC(CCC(=O)O)C(=O)O)C(=O)O)CC2)CCN(CC(=O)[O-])CC1.[44Sc+3] (centres unmarked)  residence time (PET/CT dosimetry; human patients, liver; mean of 4 patients): 0.348 h
CCOc1c(C(C)(C)O)sc2cnc(Nc3ccc(N4CCC(N5CC6(COC6)C5)CC4)cc3OC)nc12  half-life (male C57BL/6 mouse, plasma; oral, 10 mg/kg): 7.4 h
C=C(c1cc(F)c(C(=O)O)c(F)c1)c1cc2c(cc1C)C(C)(C)CCC2(C)C  blood triglycerides (Sprague-Dawley rat, male; oral, 100 mg/kg, 3 h, sesame oil vehicle): 123 ± 38.9 mg/dL
Cn1c(=O)oc2ccc(-c3ccc(CC(C#N)NC(=O)C4CNCCCO4)c(F)c3)cc21 (centres unmarked)  adverse events (skin exfoliation; human volunteers; dose not given, parts A and B; baseline: participants): < 5%
CCOc1ccc2c(c1)C(C)=CC(C)(C)N2c1cc(OCC)cc2c1NC(C)(C)C=C2C  residue concentration (LC-MS/MS; laying hens, muscle; oral, 50 mg/kg feed of ethoxyquin, 56 days): 0.3 ± 0.7 ng/g
Cc1cc(C(=O)N[C@@H](CO)CC(C)C)ccc1CO  metabolite peak area (LC-MS; Sprague-Dawley rat, both sexes, rat liver microsomes; 10 µM of parent drug, 10 min, pH 7.4, with: NADPH; baseline: parent drug at time zero): 0.8%
OCc1cn(Cc2ccc(-c3noc(-c4ccc(OCC[18F])c(C(F)(F)F)c4)n3)cc2)nn1  tissue uptake (female Lewis rat, muscle; intravenous, 5 min): 0.39 ± 0.04 %ID/g
CCCCCCCC(=O)OC[C@H](NC(=O)[C@H](CO)NC(=O)CN)C(=O)N[C@@H](Cc1ccccc1)C(=O)N[C@@H](CC(C)C)C(=O)N[C@@H](CO)C(=O)N1CCC[C@H]1C(=O)N[C@@H](CCC(=O)O)C(=O)N[C@@H](Cc1cnc[nH]1)C(=O)N[C@@H](CCC(N)=O)C(=O)N[C@@H](CCCNC(=N)N)C(=O)N[C@H](C(=O)N[C@@H](CCC(N)=O)C(=O)N[C@@H](CCC(N)=O)C(=O)N[C@@H](CCCNC(=N)N)C(=O)N[C@@H](CCCCN)C(=O)N[C@@H](CCC(=O)O)C(=O)N[C@@H](CO)C(=O)N[C@@H](CCCCN)C(=O)N[C@@H](CCCCN)C(=O)N1CCC[C@H]1C(=O)N1CCC[C@H]1C(=O)N[C@@H](C)C(=O)N[C@@H](CCCCN)C(=O)N[C@@H](CC(C)C)C(=O)N[C@@H](CCC(N)=O)C(=O)N1CCC[C@H]1C(=O)N[C@@H](CCCNC(=N)N)C(=O)O)C(C)C  hunger score (chronic HFrEF patients; intravenous infusion, 0.1 µg/kg/min, 30 min after infusion end, median; direction not given): 5
CC[C@H](C)[C@H](NC(=O)[C@H](CC(C)C)NC(=O)[C@H](Cc1c[nH]c2ccccc12)NC(=O)[C@H](C)NC(=O)[C@@H](NC(=O)[C@H](Cc1ccccc1)NC(=O)[C@H](CC(=O)O)NC(=O)[C@H](CCCNC(=N)N)NC(=O)[C@H](C)NC(=O)[C@H](C)NC(=O)[C@H](CC(C)C)NC(=O)[C@H](C)NC(=O)[C@H](CC(=O)O)NC(=O)[C@H](CC(C)C)NC(=O)[C@@H](NC(=O)[C@@H](NC(=O)[C@H](C)NC(=O)[C@H](CC(C)C)NC(=O)[C@H](CCC(=O)O)NC(=O)[C@H](CO)NC(=O)[C@H](CO)NC(=O)[C@H](Cc1ccccc1)NC(=O)[C@@H](NC(=O)CNC(=O)[C@H](CCC(=O)O)NC(=O)CNC(=O)[C@@H](N)Cc1c[nH]cn1)[C@@H](C)O)[C@@H](C)O)[C@@H](C)CC)[C@@H](C)CC)C(=O)N[C@@H](C)C(=O)N[C@H](C(=O)N[C@@H](CCCCN)C(=O)N[C@H](C(=O)N[C@H](C(=O)N[C@@H](CC(=O)O)C(=O)N[C@@H](CCCCN)C(=O)N[C@@H](CCCCN)C(=O)O)[C@@H](C)O)[C@@H](C)CC)[C@@H](C)O  share of total exposure (healthy humans, plasma; subcutaneous, 5 or 10 mg glepaglutide once weekly, after sixth dose; baseline: glepaglutide plus metabolites): ~7%
CCCCCCCCCCCCCCCC(=O)N[C@@H](CCC(=O)NCCCC[C@H](NC(=O)[C@H](C)NC(=O)[C@H](C)NC(=O)[C@H](CCC(N)=O)NC(=O)CNC(=O)[C@H](CCC(=O)O)NC(=O)[C@H](CC(C)C)NC(=O)[C@H](Cc1ccc(O)cc1)NC(=O)[C@H](CO)NC(=O)[C@H](CO)NC(=O)[C@@H](NC(=O)[C@H](CC(=O)O)NC(=O)[C@H](CO)NC(=O)[C@@H](NC(=O)[C@H](Cc1ccccc1)NC(=O)[C@@H](NC(=O)CNC(=O)[C@H](CCC(=O)O)NC(=O)[C@H](C)NC(=O)[C@@H](N)Cc1cnc[nH]1)[C@@H](C)O)[C@@H](C)O)C(C)C)C(=O)N[C@@H](CCC(=O)O)C(=O)N[C@@H](Cc1ccccc1)C(=O)N[C@H](C(=O)N[C@@H](C)C(=O)N[C@@H](Cc1c[nH]c2ccccc12)C(=O)N[C@@H](CC(C)C)C(=O)N[C@H](C(=O)N[C@@H](CCCNC(=N)N)C(=O)NCC(=O)N[C@@H](CCCNC(=N)N)C(=O)NCC(=O)O)C(C)C)[C@@H](C)CC)C(=O)O  treatment-related adverse event incidence (healthy Chinese men; sc, dose not given): 22.4%
CCCCCCCCCCCCCCCCCC(=O)Nc1ccn(C2OC(CO)C(O)C2(F)F)c(=O)n1 (centres unmarked)  Vss (athymic nude mouse, female, BxPC-3 xenograft, plasma; intravenous, 25 mg/kg gemcitabine equivalent): 0.387 ± 0.0323 L/kg
COc1cc(N(C)CCN(C)C)c(NC(=O)CCSCC(N)C(=O)O)cc1Nc1nccc(-c2cn(C3CC3)c3ccccc23)n1 (centres unmarked)  share of radioactivity (radio-HPLC; human, feces; dose not given, 0 to 48 h, sample holds 45.32% dose; baseline: sample radioactivity): 1.64%
CNC(=O)N[C@]1(C)CCC[C@@]2(C)C3CC[C@@]4(C)C[C@]3(CCC21)CC4=O (single isomer, unassigned)  measured concentration (rat plasma; 1.5 ng/mL, 8 h, room temperature, short-term stability): 1.38 ± 0.09 ng/mL
CC(C)[C@H](NC(=O)CNC(=O)[C@H](CCC(N)=O)NC(=O)[C@H](C)N)C(=O)O  clearance (LC-MS/MS; human, male, plasma; intravenous, 20 mg/kg three times daily, day 1, first dose, 10 min infusion, geometric mean): 667 mL/min/kg
COC(=O)C(c1ccccc1Cl)N1CCC(SCC(=O)c2cccc(OC)c2)C(=CC(=O)O)C1 (centres unmarked)  measured concentration (LC-MS/MS; processed plasma extract; 2 ng/mL, 8 h, room temperature): 2 ± 0.2 ng/mL
Cc1ccc(-c2ccc(-c3cc4sccc4o3)cn2)nc1  fluorescence quantum yield (acetonitrile; zinc-free ligand, with: quinine bisulfate reference): 0.6
CCCCCC(O)C=CC1OC2OC(C1CC=CCCCC(=O)O)C2(F)F (centres unmarked)  hydrolysis half-life (phosphate buffer with DMSO; concentration not given, pH 7.40): > 280 days
C=CC(=C)CC[C@]1(C)[C@H](C)CC[C@@]23C(=C[C@H](OC(=O)C(C)C)C[C@@H]12)[C@@H](OC(C)=O)O[C@H]3OC(C)=O  haemolysis (haemolysis; 20 µM): 0%
CCN(CC)c1ccc2c(-c3ccc(S(=O)(=O)NCCNC(=O)CN4CCN(CC(=O)[O-])CCN(CC(=O)O)CCN(CC(=O)[O-])CC4)cc3S(=O)(=O)[O-])c3ccc(=[N+](CC)CC)cc-3oc2c1.[64Cu+2]  metabolic degradation (radio-HPLC; athymic nude mice, feces; 120 min post-injection): > 65%

For quick reference, copied from above:
[11CH3]c1ccc2nc(C3CCC3)n(-c3ccc4[nH]ncc4c3)c2n1  absorbed dose (extrapolated from mouse biodistribution; standard human, testes or uterus): 2.4 µSv/MBq
COc1ccc(-c2cc(=O)c3c(O)cc(O[C@@H]4O[C@H](CO[C@@H]5O[C@@H](C)[C@H](O)[C@@H](O)[C@H]5O)[C@@H](O)[C@H](O)[C@H]4O)cc3o2)cc1  measured concentration (freeze-thaw stability; rat plasma; 3 days, high QC, 3 freeze-thaw cycles): 2962 ± 18.5 ng/mL
